Results from different studies.
Cell line: SH-SY5Y

CC(C)c1ccc(N(C)c2ccc3c(c2)OCC[C@H]3CNc2cnccc2C(=O)O)cc1  IC50 (cell growth or viability, ATP luminescence; 7 days): 0.0135 µM
Cc1c(COc2cc(OCc3cccc(C#N)c3)c(CNC(CO)CO)cc2Cl)cccc1-c1cccc(OCCCCCCC(=O)NO)c1  IC50 (cell growth or viability, CCK-8; 48 h): > 20 µM
CCCCCCCCCC(=O)Oc1c(C)c(OC)c2c(c1C)OC(=O)C(CCCCCCCC)C2(O)C=Cc1ccccc1 (stereo not shown)  IC50 (cell growth or viability, SRB; 72 h): > 50 µM
OCn1cnc2ccccc21  IC50 (cell growth, MTT; 24 h): 17.7 µM
Cc1c(COc2cc(OCc3cccc(C#N)c3)c(CN3CCCC[C@H]3C(=O)O)cc2Cl)cccc1-c1cccc(OCCCCCC(=O)NO)c1  IC50 (cell growth or viability, CCK-8; 48 h): > 20 µM
CCCCCC(=O)Oc1c(C)c(OC)c2c(/C=C/c3ccccc3)c(CCCC)c(=O)oc2c1C  IC50 (cell growth or viability, SRB; 72 h): > 50 µM
Cc1cc(C)[nH]n1  IC50 (cell growth, MTT; 24 h): > 800 µM
CCCC(=O)Oc1c(C)c(OC)c2c(c1C)OC(=O)[C@@H](CC)[C@]2(O)/C=C/c1ccccc1 (racemic)  IC50 (cell growth or viability, SRB; 72 h): > 50 µM
Cc1cc(C)n(CO)n1  IC50 (cell growth or viability, MTT; 24 h): 62.6 µM
Cc1c(COc2cc(OCc3cccc(C#N)c3)c(CNCCO)cc2Cl)cccc1-c1cccc(OCCCCCCC(=O)NO)c1  IC50 (cell growth or viability, CCK-8; 48 h): > 20 µM
CCCCCCCCCC(=O)Oc1c(C)c(OC)c2c(/C=C/c3ccccc3)c(CCCCCCCC)c(=O)oc2c1C  IC50 (cell growth or viability, SRB; 72 h): > 50 µM
O=C(CCCCCCC(=O)Nc1ccccc1)NO  IC50 (cell growth or viability, CCK-8; 48 h): 7.72 µM
CC(=O)O[C@H]1OC[C@@H]2C=C([C@@]3(C)CCCC(C)(C)C3)CC[C@H]12  IC50 (cytotoxicity, MTT; 24 h): 7.1 µM
O=S(=O)(c1ccc2c(c1)OCO2)n1cc(CCCCN2CCC(=C(c3ccc(F)c(F)c3)c3ccc(F)c(F)c3)CC2)nn1  IC50 (cell growth or viability, ATP luminescence; 48 h): 4.42 µM
Cc1c(COc2cc(OCc3cccc(C#N)c3)c(CN3CCCC[C@H]3C(=O)O)cc2Cl)cccc1-c1cccc(OCCCCCCC(=O)NO)c1  IC50 (cell growth or viability, CCK-8; 48 h): > 20 µM
CC(=O)OC1OC(OC(C)=O)C2CC(O)(C3(C)CCCC(C)(C)C3)CCC12 (stereo not shown)  IC50 (cytotoxicity, MTT; 24 h): 6.5 µM
